Results gathered from unrelated publications.
Lines come from different studies, so protocols differ.
Effect on: microbial growth

| SMILES | organism | technique | strain | time | setting | MIC |
| --- | --- | --- | --- | --- | --- | --- |
| Cc1[nH]c(C(=O)Nc2ccc(C(=O)NCC(=O)O)cc2N2CC[C@H](NC(=O)OC(C)(C)C)C2)c(Cl)c1Cl | Acinetobacter baumannii | broth dilution | ATCC19606 | – | – | > 32 µg/mL |
| CN[C@H](CC(C)C)C(=O)N[C@H]1C(=O)N[C@@H](CC(N)=O)C(=O)N[C@H]2C(=O)N[C@H]3C(=O)N[C@H](C(=O)N[C@H](C(=O)O)c4cc(O)cc(O)c4-c4cc3ccc4O)[C@H](O)c3ccc(c(Cl)c3)Oc3cc2cc(c3O[C@@H]2O[C@H](CO)[C@@H](O)[C@H](O)[C@H]2O[C@H]2C[C@](C)(N)[C@H](O)[C@H](C)O2)Oc2ccc(cc2Cl)[C@H]1O | Staphylococcus epidermidis | – | ATCC14990 | – | – | 6.67 µM |
| Clc1ccc(Nc2cc3nc4ccccc4n(-c4ccc(Cl)cc4)c-3c/c2=N\OCc2ccccc2)cc1 | Mycobacterium avium | – | ATCC700898 | – | – | 3.75 µM |
| O=C(O)CN1C(=O)/C(=C/c2ccc(-c3ccc(N(c4ccccc4)c4ccccc4)cc3)cc2)SC1=S | Staphylococcus epidermidis | broth dilution | ATCC12228 | – | – | 0.98 µg/mL |
| Cc1[nH]c(C(=O)Nc2ccc(C(=O)NCc3n[nH]c(=O)o3)cc2N2CCN(C(=O)OC(C)(C)C)CC2)c(Cl)c1Cl | Acinetobacter baumannii | broth dilution | ATCC19606 | – | – | > 32 µg/mL |
| CN[C@H](CC(C)C)C(=O)N[C@H]1C(=O)N[C@@H](CC(N)=O)C(=O)N[C@H]2C(=O)N[C@H]3C(=O)N[C@H](C(=O)N[C@H](C(=O)O)c4cc(O)cc(O)c4-c4cc3ccc4O)[C@H](O)c3ccc(c(Cl)c3)Oc3cc2cc(c3O[C@@H]2O[C@H](CO)[C@@H](O)[C@H](O)[C@H]2O[C@H]2C[C@](C)(N)[C@H](O)[C@H](C)O2)Oc2ccc(cc2Cl)[C@H]1O | Enterococcus faecalis | broth dilution | ATCC29212 | 20 h | – | 4 µg/mL |
| Cc1[nH]c(C(=O)Nc2ccc(C(=O)NCc3n[nH]c(=O)o3)cc2N2CCNCC2)c(Cl)c1Cl.Cl | Klebsiella aerogenes | broth dilution | ATCC13408 | – | – | > 32 µg/mL |
| CN[C@H](CC(C)C)C(=O)N[C@H]1C(=O)N[C@@H](CC(N)=O)C(=O)N[C@H]2C(=O)N[C@H]3C(=O)N[C@H](C(=O)N[C@H](C(=O)O)c4cc(O)cc(O)c4-c4cc3ccc4O)[C@H](O)c3ccc(c(Cl)c3)Oc3cc2cc(c3O[C@@H]2O[C@H](CO)[C@@H](O)[C@H](O)[C@H]2O[C@H]2C[C@](C)(N)[C@H](O)[C@H](C)O2)Oc2ccc(cc2Cl)[C@H]1O | Streptococcus pyogenes | broth dilution | ATCC19615 | – | – | 0.24 µg/mL |
| C=CCO/N=c1\cc2n(-c3ccc(Cl)cc3)c3ccccc3nc-2cc1Nc1ccc(Cl)cc1 | Mycobacterium avium | – | – | – | clinical isolate | > 30 µM |
| C=C/C=C(\C)CC[C@H]1C[C@H](O)CC(=O)O1 | Salmonella enterica | broth dilution | ATCC14028 TYPHIMURIUM | – | – | 128 µg/mL |
| C[C@@H]1O[C@@H](OC[C@H]2O[C@@H](Oc3c(-c4ccc(O)c(O)c4)oc4cc(O)cc(O)c4c3=O)[C@H](O)[C@@H](O)[C@@H]2O)[C@H](O)[C@H](O)[C@H]1O | Streptococcus mutans | broth dilution | – | 24 h | – | 200 µg/mL |
| Cc1[nH]c(C(=O)Nc2ccc(C(=O)NCC(=O)O)cc2N2CC[C@@H](N)C2)c(Cl)c1Cl.Cl | Acinetobacter baumannii | broth dilution | ATCC19606 | – | – | > 32 µg/mL |
| C[C@H](NC(=O)CO/N=c1\cc2n(-c3ccc(Cl)cc3)c3ccccc3nc-2cc1Nc1ccc(Cl)cc1)C(=O)O | Mycobacterium avium | – | ATCC700898 | – | – | 1.88 µM |
| CC(C)(C)OC(=O)N1CCN(c2cc(C(=O)NCC(=O)O)ccc2NC(=O)c2cc(Br)c(Br)[nH]2)CC1 | Klebsiella aerogenes | broth dilution | ATCC13408 | – | – | > 32 µg/mL |
| O=C(O)CNC(=O)CO/N=c1\cc2n(-c3ccc(Cl)cc3)c3ccccc3nc-2cc1Nc1ccc(Cl)cc1 | Mycobacterium avium | – | ATCC700898 | – | – | 0.12 µM |
| CN(Cc1ccc(C(C)(C)C)cc1)Cc1cccc2ccccc12 | Trichophyton mentagrophytes | broth dilution | ATCC18748 | 72 h | – | 120 µg/mL |
| C[C@H](NC(=O)CO/N=c1\cc2n(-c3ccc(Cl)cc3)c3ccccc3nc-2cc1Nc1ccc(Cl)cc1)C(=O)OC(C)(C)C | Mycobacterium avium | – | ATCC700898 | – | – | > 30 µM |
| CC1(C)S[C@@H]2[C@H](NC(=O)[C@H](N)c3ccccc3)C(=O)N2[C@H]1C(=O)O | Escherichia coli | broth dilution | ATCC25922 | – | – | 21.5 µM |
| O=C1O[C@H]2[C@@H]3OC(=O)c4cc(O)c(O)c(O)c4-c4c(O)c(O)c5oc(=O)c6c(c(O)c(O)c7oc(=O)c4c5c76)-c4c(cc(O)c(O)c4O)C(=O)OC[C@H]3OC(O)[C@@H]2OC(=O)c2cc(O)c(O)c(O)c2-c2c1cc(O)c(O)c2O (mixture of isomers) | Streptococcus mutans | broth dilution | – | 24 h | – | 100 µg/mL |
| C[C@@H]1[C@H](O)[C@@H](C)/C=C/C=C/C=C/C=C/C=C/C=C/C=C/[C@H](O[C@@H]2O[C@H](C)[C@@H](O)[C@H](N)[C@@H]2O)C[C@@H]2O[C@](O)(C[C@@H](O)C[C@@H](O)[C@H](O)CC[C@@H](O)C[C@@H](O)CC(=O)O[C@H]1C)C[C@H](O)[C@H]2C(=O)O | Pichia kudriavzevii | broth dilution | ATCC34135 | 24 h | – | 4 µg/mL |
| OC(Cn1cncn1)(Cn1cncn1)c1ccc(F)cc1F | Clavispora lusitaniae | broth dilution | MY1396 | – | – | 1 µg/mL |
| CC(=O)NC[C@H]1CN(c2ccc(N3CCOCC3)c(F)c2)C(=O)O1 | Streptococcus pneumoniae | – | PRSP | – | – | 1 µg/mL |

Excerpt of the above:
| SMILES | organism | technique | strain | time | setting | MIC |
| --- | --- | --- | --- | --- | --- | --- |
| Cc1[nH]c(C(=O)Nc2ccc(C(=O)NCc3n[nH]c(=O)o3)cc2N2CCNCC2)c(Cl)c1Cl.Cl | Klebsiella aerogenes | broth dilution | ATCC13408 | – | – | > 32 µg/mL |
| OC(Cn1cncn1)(Cn1cncn1)c1ccc(F)cc1F | Clavispora lusitaniae | broth dilution | MY1396 | – | – | 1 µg/mL |
